Results gathered from unrelated publications.
Compare with care: the assays were run in different laboratories. Several values in a cell are separate wells, animals, samples, runs or records.
Organism: Mycobacterium tuberculosis

SMILES | assay | test system | conditions | how to read | measurement | result
Cc1cc(Oc2nc(N3CC[C@@H](c4ccncc4)C3)ncc2F)[nH]n1 | OD | H37Rv PurF CRISPRi knockdown | 4e-06 µM, with: anhydrotetracycline low | – | normalised growth | 98% and 96%
Cc1cccc(-c2nc(Nc3ccncn3)c3sccc3n2)n1 | bacterial growth, inhibitor | mmpL3-TetON | – | – | IC50 | 960 nM
COc1cc(/C=N/NC(=O)c2ccncc2)ccc1OC(=O)CN1C(=O)CSC1=O | microbial growth, resazurin | H37RV | – | – | MIC | 149 µM
COc1ccc2ncc(F)c(C[C@H](O)[C@H]3OC[C@H](NCc4ccc5c(n4)NC(=O)CO5)CO3)c2c1 | – | H37Rv, mouse, IFN-gamma knockout | intraperitoneal, 100 mg/kg twice daily, 10 days | reference: untreated | lung bacterial burden reduction | 0.7 log10
CN1CCN(c2ccc(C(F)(F)F)cc2NC(=O)c2ccccn2)CC1 | bacterial growth, inhibitor | mmpL3-TetON | – | – | IC50 | 13000 nM
CCC(CO)NCCNC(CC)CO.CCOc1cc(C=NNC(=O)c2ccccn2)ccc1OC(=O)CN1C(=O)CSC1=O | growth in combination | 192 | with: reference drug at 1/2 MIC | – | MIC | 0.5 µg/mL
Cc1nc2ccc(OC(F)(F)F)cn2c1C(=O)NCc1ccc2oc(-c3ccc(OC(F)(F)F)cc3)nc2c1 | microbial growth | H37RV | – | – | MIC90 | > 25 µM
O=C(NC12CC3CC(CC(C3)C1)C2)c1cc2cc(Cl)ccc2[nH]1 | bacterial growth, inhibitor | mmpL3-TetON | – | – | IC50 | 20 nM
NNC(=O)c1ccncc1.O=C(CN1C(=O)CSC1=O)Oc1ccc(/C=N/NC(=O)c2ccccn2)cc1Br | two-drug checkerboard | H37Rv | concentration not given, unit not given | lower means more synergy | FICI | 1.5

Some of these lines once more:
SMILES | assay | test system | conditions | how to read | measurement | result
NNC(=O)c1ccncc1.O=C(CN1C(=O)CSC1=O)Oc1ccc(/C=N/NC(=O)c2ccccn2)cc1Br | two-drug checkerboard | H37Rv | concentration not given, unit not given | lower means more synergy | FICI | 1.5
